Measurements collected from several papers.
Values joined by “and” are separate records of one study, mostly repeats; a detail may differ. ± gives the spread as reported.
Aryl hydrocarbon receptor: Aryl hydrocarbon receptor (Danio rerio, UniProt Q9YGV3)
USP13 ZnF-UBD domain: Ubiquitin carboxyl-terminal hydrolase 13, ZnF-UBD domain (USP13, Homo sapiens, UniProt Q92995)
UniProt Q92995, sequence (whole entry, looked up): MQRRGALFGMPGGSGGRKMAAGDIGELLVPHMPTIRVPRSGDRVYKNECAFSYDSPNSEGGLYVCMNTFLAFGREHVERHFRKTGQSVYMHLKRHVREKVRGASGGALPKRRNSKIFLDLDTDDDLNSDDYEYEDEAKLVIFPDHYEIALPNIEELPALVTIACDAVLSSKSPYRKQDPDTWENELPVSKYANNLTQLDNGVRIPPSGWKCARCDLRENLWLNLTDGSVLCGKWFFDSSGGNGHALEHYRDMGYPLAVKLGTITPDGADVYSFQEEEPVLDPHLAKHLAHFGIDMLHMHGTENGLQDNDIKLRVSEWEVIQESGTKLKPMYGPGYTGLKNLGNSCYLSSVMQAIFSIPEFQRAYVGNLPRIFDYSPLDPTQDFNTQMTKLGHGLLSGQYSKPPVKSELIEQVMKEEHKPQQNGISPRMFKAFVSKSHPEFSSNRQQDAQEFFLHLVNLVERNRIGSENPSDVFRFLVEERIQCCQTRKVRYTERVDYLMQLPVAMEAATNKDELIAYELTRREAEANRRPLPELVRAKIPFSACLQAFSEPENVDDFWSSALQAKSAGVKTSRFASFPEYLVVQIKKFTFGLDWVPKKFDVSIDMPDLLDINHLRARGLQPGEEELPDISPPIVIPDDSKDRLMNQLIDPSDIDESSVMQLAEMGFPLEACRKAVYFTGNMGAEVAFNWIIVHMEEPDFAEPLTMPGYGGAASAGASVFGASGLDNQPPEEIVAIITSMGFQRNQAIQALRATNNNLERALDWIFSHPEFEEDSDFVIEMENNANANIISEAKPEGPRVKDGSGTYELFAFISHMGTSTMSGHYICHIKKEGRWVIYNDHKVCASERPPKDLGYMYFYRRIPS
T1: riboswitch RNA yjdF aptamer (Bacillus subtilis); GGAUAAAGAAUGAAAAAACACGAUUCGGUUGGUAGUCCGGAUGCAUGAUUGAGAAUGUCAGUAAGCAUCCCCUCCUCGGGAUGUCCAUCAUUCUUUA
T2: DNA aptamer; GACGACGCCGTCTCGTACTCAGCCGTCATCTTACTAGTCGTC
UniProt Q16774, sequence (whole entry, looked up): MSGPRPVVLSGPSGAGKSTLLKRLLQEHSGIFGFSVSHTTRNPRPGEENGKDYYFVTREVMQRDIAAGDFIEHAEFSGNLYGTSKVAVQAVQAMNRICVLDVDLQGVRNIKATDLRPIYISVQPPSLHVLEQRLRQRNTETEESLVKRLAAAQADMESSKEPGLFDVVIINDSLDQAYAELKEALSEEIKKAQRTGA
UniProt Q13133, sequence (whole entry, looked up): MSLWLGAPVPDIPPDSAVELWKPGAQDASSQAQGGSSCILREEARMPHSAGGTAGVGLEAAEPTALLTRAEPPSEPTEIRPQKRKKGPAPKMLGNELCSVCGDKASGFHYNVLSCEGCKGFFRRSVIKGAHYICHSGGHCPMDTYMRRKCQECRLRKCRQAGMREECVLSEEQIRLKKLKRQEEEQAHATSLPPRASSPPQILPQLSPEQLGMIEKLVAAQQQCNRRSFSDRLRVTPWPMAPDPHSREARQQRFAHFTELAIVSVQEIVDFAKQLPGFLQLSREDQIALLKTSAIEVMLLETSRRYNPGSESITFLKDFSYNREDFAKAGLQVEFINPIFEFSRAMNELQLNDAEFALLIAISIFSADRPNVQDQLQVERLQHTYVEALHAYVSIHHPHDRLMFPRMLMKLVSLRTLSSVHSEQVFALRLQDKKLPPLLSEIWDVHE
UniProt P00519, sequence (whole entry, unmodified, looked up): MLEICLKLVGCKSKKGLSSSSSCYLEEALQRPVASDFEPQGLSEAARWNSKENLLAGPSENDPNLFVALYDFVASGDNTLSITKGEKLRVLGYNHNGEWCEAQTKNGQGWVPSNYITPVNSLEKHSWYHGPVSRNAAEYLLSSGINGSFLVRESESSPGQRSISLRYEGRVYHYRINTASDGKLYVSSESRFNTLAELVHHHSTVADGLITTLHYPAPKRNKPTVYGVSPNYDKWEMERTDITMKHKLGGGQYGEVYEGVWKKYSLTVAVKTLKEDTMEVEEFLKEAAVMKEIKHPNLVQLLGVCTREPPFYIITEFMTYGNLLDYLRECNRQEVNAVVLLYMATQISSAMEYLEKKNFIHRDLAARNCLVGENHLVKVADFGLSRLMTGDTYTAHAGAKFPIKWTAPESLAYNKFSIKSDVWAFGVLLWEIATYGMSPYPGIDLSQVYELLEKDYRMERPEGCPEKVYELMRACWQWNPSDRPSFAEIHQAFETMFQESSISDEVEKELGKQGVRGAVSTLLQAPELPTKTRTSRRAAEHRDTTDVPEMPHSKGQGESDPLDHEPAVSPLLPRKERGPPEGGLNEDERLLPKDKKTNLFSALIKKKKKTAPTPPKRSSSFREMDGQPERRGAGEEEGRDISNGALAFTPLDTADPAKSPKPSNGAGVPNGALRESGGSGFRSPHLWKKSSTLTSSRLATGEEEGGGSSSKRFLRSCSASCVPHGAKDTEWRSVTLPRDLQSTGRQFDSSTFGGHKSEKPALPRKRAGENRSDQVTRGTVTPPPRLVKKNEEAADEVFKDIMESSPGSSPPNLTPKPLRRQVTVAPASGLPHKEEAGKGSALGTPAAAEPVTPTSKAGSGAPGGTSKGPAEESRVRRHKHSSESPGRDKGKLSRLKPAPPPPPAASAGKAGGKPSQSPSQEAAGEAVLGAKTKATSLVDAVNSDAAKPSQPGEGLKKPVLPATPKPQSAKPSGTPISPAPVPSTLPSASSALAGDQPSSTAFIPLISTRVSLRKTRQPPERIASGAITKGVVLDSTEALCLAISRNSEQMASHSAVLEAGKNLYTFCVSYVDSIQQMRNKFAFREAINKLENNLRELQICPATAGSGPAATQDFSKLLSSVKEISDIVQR
UniProt P25963, sequence (whole entry, unmodified, looked up): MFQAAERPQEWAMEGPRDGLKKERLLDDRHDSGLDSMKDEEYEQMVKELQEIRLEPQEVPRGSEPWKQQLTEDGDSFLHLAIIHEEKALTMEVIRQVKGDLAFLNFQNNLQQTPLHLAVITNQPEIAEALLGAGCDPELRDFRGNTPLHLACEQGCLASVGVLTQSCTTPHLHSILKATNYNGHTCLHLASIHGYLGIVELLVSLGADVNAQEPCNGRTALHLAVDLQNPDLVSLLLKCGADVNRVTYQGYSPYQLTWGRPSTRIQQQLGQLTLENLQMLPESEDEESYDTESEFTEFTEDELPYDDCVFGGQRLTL
UniProt P35580, sequence (whole entry, looked up): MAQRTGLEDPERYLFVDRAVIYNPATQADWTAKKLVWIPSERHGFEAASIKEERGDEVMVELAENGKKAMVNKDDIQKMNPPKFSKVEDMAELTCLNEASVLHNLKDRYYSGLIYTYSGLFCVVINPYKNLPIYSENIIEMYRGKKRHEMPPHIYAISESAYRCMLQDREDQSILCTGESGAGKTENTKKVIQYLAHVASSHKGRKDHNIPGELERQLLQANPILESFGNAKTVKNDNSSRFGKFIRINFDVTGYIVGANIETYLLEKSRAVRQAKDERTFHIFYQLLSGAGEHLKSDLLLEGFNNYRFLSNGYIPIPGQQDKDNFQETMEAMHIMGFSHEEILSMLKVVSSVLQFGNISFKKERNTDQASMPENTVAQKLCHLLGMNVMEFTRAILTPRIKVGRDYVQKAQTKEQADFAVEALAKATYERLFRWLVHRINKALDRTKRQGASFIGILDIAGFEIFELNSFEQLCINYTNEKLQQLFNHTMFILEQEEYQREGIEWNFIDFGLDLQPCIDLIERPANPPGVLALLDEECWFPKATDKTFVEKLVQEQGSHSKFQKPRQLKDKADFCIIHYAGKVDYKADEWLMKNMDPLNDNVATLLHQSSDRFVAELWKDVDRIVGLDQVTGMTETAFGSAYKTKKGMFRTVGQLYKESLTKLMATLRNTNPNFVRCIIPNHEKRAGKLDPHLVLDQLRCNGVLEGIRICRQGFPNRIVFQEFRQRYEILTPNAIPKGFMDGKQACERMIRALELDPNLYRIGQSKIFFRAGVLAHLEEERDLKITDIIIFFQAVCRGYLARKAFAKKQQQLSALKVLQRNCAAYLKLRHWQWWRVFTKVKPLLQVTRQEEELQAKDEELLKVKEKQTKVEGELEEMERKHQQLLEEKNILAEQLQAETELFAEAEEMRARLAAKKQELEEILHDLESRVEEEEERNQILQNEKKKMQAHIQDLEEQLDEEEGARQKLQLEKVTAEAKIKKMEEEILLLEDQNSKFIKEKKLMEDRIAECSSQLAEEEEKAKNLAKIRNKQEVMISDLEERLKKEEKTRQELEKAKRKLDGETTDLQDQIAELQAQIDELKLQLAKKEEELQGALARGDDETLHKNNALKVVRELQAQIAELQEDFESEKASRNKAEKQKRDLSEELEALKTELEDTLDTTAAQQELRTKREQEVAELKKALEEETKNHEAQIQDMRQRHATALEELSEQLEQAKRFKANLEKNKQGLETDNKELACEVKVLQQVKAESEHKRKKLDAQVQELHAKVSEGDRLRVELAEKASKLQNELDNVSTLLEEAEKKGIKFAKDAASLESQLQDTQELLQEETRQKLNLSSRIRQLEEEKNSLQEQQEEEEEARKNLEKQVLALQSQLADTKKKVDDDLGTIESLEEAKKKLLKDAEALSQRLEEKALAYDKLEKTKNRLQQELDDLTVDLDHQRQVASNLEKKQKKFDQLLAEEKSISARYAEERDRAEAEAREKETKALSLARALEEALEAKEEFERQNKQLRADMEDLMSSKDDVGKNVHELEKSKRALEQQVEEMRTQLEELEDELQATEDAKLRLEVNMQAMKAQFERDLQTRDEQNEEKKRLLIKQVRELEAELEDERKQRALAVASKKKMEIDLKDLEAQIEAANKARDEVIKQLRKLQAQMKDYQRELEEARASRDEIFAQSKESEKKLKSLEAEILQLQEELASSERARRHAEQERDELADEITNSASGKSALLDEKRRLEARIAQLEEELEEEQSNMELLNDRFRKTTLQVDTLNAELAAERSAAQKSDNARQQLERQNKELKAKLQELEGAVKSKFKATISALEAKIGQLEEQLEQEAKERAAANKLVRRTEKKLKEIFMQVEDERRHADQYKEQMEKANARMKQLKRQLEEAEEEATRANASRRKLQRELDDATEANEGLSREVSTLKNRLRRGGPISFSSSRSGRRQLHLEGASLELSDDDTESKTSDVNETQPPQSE
UniProt P00698, sequence (whole entry, looked up): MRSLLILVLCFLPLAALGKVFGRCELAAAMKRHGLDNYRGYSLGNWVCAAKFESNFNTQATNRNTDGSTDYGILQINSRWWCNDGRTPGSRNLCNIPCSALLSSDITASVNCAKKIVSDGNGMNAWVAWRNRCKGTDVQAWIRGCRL

Cc1nc(CSc2nc(SCc3ccc(C(C)C)cc3)nc(=O)[nH]2)cs1  mean linear DNA (DNA topoisomerase 2-alpha (TOP2A, Homo sapiens, UniProt P11388); DNA cleavage; 15.6 µM): 0%
CC[C@H](C)[C@H](NC(=O)[C@H](CCCNC(=N)N)NC(=O)[C@H](Cc1c[nH]cn1)NC(=O)[C@H](CCCNC(=N)N)NC(=O)[C@H](CC(=O)O)NC(=O)[C@H](CC(=O)O)NC(=O)[C@@H](NC(=O)[C@H](CC(=O)O)NC(=O)[C@@H]1CCCN1C(=O)[C@@H](N)CC(C)C)[C@@H](C)O)C(=O)N[C@@H](CCC(=O)O)C(=O)N[C@@H](CCC(=O)O)C(=O)N[C@@H](CCCCN)C(=O)N[C@@H](CCCNC(=N)N)C(=O)N[C@@H](CCCCN)C(=O)N[C@@H](CCCNC(=N)N)C(=O)N[C@H](C(=O)N[C@@H](Cc1ccc(O)cc1)C(=O)N[C@@H](CCC(=O)O)C(=O)N[C@H](C(=O)N[C@@H](Cc1ccccc1)C(=O)N[C@@H](CCCCN)C(=O)N[C@@H](CO)C(=O)N[C@H](C(=O)N[C@@H](CCSC)C(=O)N[C@@H](CCCCN)C(=O)N[C@@H](CCCCN)C(=O)N[C@@H](CO)C(=O)N1CCC[C@H]1C(=O)N[C@@H](Cc1ccccc1)C(=O)N[C@@H](CC(N)=O)C(=O)NCC(=O)N1CCC[C@H]1C(=O)O)[C@@H](C)CC)[C@@H](C)O)[C@@H](C)O  -TΔS (NF-kappa-B inhibitor alpha (Homo sapiens, UniProt P25963); binding, ITC; pH 7.5, 293 K, 50 mM NaCl): -4.4 ± 0.1 kcal/mol
CC1=Nc2ccc(Cl)cc2C(c2ccc(C)cc2)N1CCCN(C)C (stereo not shown)  Ki′ (Trypanothione reductase (TPR, Trypanosoma brucei brucei, UniProt P39051); enzyme activity, mixed inhibitor, DTNB-coupled kinetic; enzyme-substrate complex): 1.5 µM
O=C(COP(=O)(O)O)[C@@H](O)[C@H](O)[C@H](O)COP(=O)(O)O  thermal stability ratio (Myosin-10 (Homo sapiens, UniProt P35580); thermal proteome profiling, refers to: MYH10; HepG2 cell lysate; concentration not given, 57 over 37 °C, mean; reference: compound over control): 0.647
N[C@@H](CO)C(=O)O  number of binding sites (Lysozyme C (LYZ, Gallus gallus, UniProt P00698); intrinsic fluorescence; concentration not given, pH 6.9, 25 °C, lysozyme 10 µM): 0.85 ± 0.08
Clc1ccc2[nH]ccc2c1  peak current (5-hydroxytryptamine receptor 3A (Htr3a, Mus musculus, UniProt P23979); positive allosteric modulator, two-electrode voltage clamp; Xenopus oocytes; 100 µM, pH 7.4, holding -60 mV, added: 5-HT 1 µM; reference: 5-HT 1 µM alone): 211 ± 55.4%
Cc1cc2nc3[nH]c(=O)[nH]c(=O)c3nc2cc1C  Kd (T1, riboswitch RNA yjdF aptamer (Bacillus subtilis); fluorescence titration; added: 380 nM lumichrome): 0.006 µM
NCCCS(=O)(=O)O  normalised MST signal (Sodium- and chloride-dependent taurine transporter (SLC6A6, Homo sapiens, UniProt P31641, G62A); binding, microscale thermophoresis; 125 µM, room temperature, added: 50 nM labelled protein; higher = more binding): -0.0218
Nc1ccc2ccc3cccc4ccc1c2c34  fold change (Aryl hydrocarbon receptor; reporter gene, agonist, luciferase reporter; ZF-4; 30000 µM; reference: vehicle control): 1.04
O=S(=O)(O)C1CCNCC1  maximal response (GABA-A receptor; alpha-1/beta-2/gamma-2 (Rattus norvegicus, UniProt P18508+P62813+P63138); membrane potential, agonist, QP-DHM fluorescence; HEK293 expressing GABAA; reference: GABA): 94%
Nc1ncnc2c1ncn2[C@@H]1O[C@H](COP(=O)(O)CP(=O)(O)OP(=O)(O)O)[C@@H](O)[C@H]1O  calcium influx (P2X purinoceptor 1 (P2RX1, Homo sapiens, UniProt P51575, R139P); calcium influx; 3.16 nM; reference: ionomycin response): 0%
COC1=C(OC)C(=O)C(CC=C(C)C)=C(C)C1=O  Km (FSP1 F354A mutant; substrate; added: 100 µM co-substrate): 26.9 ± 10.6 µM
CSCC[C@H](NC(=O)[C@H](CCC(=O)O)NC(=O)[C@H](CCC(N)=O)NC(=O)[C@H](CO)NC(=O)CCCC[C@@H]1SC[C@@H]2NC(=O)N[C@@H]21)C(=O)N[C@H](C(=O)N[C@@H](Cc1c[nH]cn1)C(=O)N[C@@H](CC(C)C)C(=O)N[C@H](C(=O)N[C@@H](CC(N)=O)C(=O)N[C@@H](CCCCN)C(=O)N[C@@H](CCC(=O)O)C(=O)N1CCC[C@H]1C(=O)N[C@@H](CO)C(=O)N[C@@H](CCC(=O)O)C(=O)N[C@H](C(=O)N1CCC[C@H]1C(=O)N[C@@H](CC(=O)O)C(=O)N[C@@H](CCC(N)=O)C(=O)N[C@@H](CS)C(=O)N[C@@H](CCSC)C(=O)N[C@H](C(=O)N[C@@H](C)C(=O)N[C@@H](CC(=O)O)C(=O)N[C@@H](CCC(=O)O)C(=O)O)[C@@H](C)O)[C@@H](C)O)C(C)C)C(C)C  relative binding affinity (mouse Tiam2 R693A R716A; SPR; concentration not given; reference: wild type): 4%
O=C(COP(=O)(O)O)[C@@H](O)[C@H](O)[C@H](O)COP(=O)(O)O  minimum concentration, maximal activation (Pyruvate kinase PKM (PKM, Homo sapiens, UniProt P14618); pyruvate kinase activity, activator; SK-HEP1 cell lysate; without AIM): 232 ± 128 nM
N#Cc1ccc(C[C@H](NC(=O)c2cc3cc([N+](=O)[O-])ccc3[nH]2)C(=O)N2CCc3ccccc32)cc1  activity (N-formyl peptide receptor 2 (FPR2, Homo sapiens, UniProt P25090); cell-based; concentration not given): inactive
c1cnn2ncc(-c3ccnc(N4CCC45COC5)n3)c2c1  remaining binding (Tyrosine-protein kinase ABL1 (ABL1, Homo sapiens, UniProt P00519, F317I); KINOMEscan; 1 µM; reference: control): 52% and 81%
CCCCCCCC/C=C\CCCCCCCC(=O)NCCc1ccc(O)c(O)c1  maximal open probability (Transient receptor potential cation channel subfamily V member 1 (Trpv1, Mus musculus, UniProt Q704Y3, D510E); ion current, agonist, whole-cell patch clamp; D510E; reference: 3 mM 2-APB): 0.67 ± 0.08
CC1(C)S[C@@H]2[C@H](NC(=O)[C@H](N)c3ccccc3)C(=O)N2[C@H]1C(=O)O  Kd (T2, DNA aptamer; ITC): 12.7 µM
CCOC(=O)C(C)c1n[nH]c2nc(N)[nH]c(=O)c2c1=O (stereo not shown)  melting temperature shift (Dihydropteroate synthase (folP, Bacteria, UniProt P0AC13); CETSA HiBiT; Escherichia coli, cell lysate; concentration not given; reference: DMSO): 12.3 °C
Cn1c2c(c3ccc(Cl)c(Cl)c31)C(C#N)C1(CCOCC1)NC2=O (stereo not shown)  delta Tm (Serine/threonine-protein kinase VRK3 (VRK3, Homo sapiens, UniProt Q8IV63); thermal stability, thermal shift; 10 µM; higher = stronger binding): -0.1 °C
Nc1nc2c(ncn2[C@@H]2O[C@H](COP(=O)(O)O)[C@@H](O)[C@H]2O)c(=O)[nH]1  reaction velocity (GUK1 (Homo sapiens, UniProt Q16774); enzyme activity, NADH-coupled; 31.25 µM, added: NaCl 50 mM): 0.0439 µM/s and 0.0127 µM/s and 0.0476 µM/s
O=C1C=CC(=O)c2c1ccc1ccccc21  fold change (Aryl hydrocarbon receptor; reporter gene, agonist, luciferase reporter; ZF-4; 41.15 µM; reference: vehicle control): 10.2
CCCCCCCCCCCCC/C=C/[C@@H](O)[C@H](CO)NC(=O)CCCCCCCCCCCCC  lipid fraction bound (Protein SET (SET, Homo sapiens, UniProt Q01105, Y135C); lipid binding, GFP pull-down LC-MS/MS; A549 overexpressing GFP-tagged protein; reference: eluate plus flow-through): 6.6%
O=C(O)c1ccc(Nc2ncc3c(n2)-c2ccc(Cl)cc2C(c2c(F)cccc2F)=NC3)cc1  remaining activity (Met(h); kinase activity; 1 µM): 140%
Cn1cc(-c2ccc(-c3cncc(Cl)c3N3CCC4(CCNC4=O)CC3)cc2)cn1  log2 fold change (COLO 205; gene expression, microarray, refers to: WWTR1 mRNA; concentration not given, 6 h; reference: untreated cells): -2.94
C=CC(=O)N1CCC(C(=O)NCC(=O)N2CCN(c3nc(-c4cnc(N)nc4C(F)F)nc(N4CCOCC4)n3)CC2)CC1  remaining binding (NUAK family SNF1-like kinase 2 (NUAK2, Homo sapiens, UniProt Q9H093); KINOMEscan; 1 µM): 100%
CCN1CCC[C@H]1CNC(=O)c1c(O)c(Cl)cc(Cl)c1OC  log2 fold change (GPR32 (Homo sapiens, UniProt O75388); β-arrestin recruitment, TANGO luminescence; concentration not given; reference: basal luminescence): 0.132
COc1cccc2c(Nc3ccc4[nH]c(C(=O)N/N=C/c5ccc(SC)cc5)cc4c3)cc(C)nc12  activation (Oxysterols receptor LXR-alpha (NR1H3, Homo sapiens, UniProt Q13133); reporter gene, Gal4 hybrid reporter; 3 µM; reference: vehicle): 0.72 fold
c1ccc2c(c1)-c1cccc3c1c-2cc1ccccc13  fold change (Aryl hydrocarbon receptor; reporter gene, agonist, luciferase reporter; ZF-4; 1111.11 µM; reference: vehicle control): 9.17
Cc1ccc(NC(=O)/C=C/c2cccs2)cc1  potentiation EC50 (Nicotinic acetylcholine receptor alpha9/alpha10 (Rattus norvegicus, UniProt P43144+Q9JLB5); positive allosteric modulator; rat α9α10 expressing cells; added: ACh 100 µM): inactive
CC[C@@H]1[C@H](F)C(=O)N[C@@H]1COc1nccc2cc(C(N)=O)c(OC)cc12  inhibition (Serine/threonine-protein kinase tousled-like 1 (TLK1, Homo sapiens, UniProt Q9UKI8); ATP-site probe binding, ActivX profiling; THP-1 cell lysate; 0.01 mM, Lys1 site): 10.2%
O=C(O)CCC(=O)c1ccc(S(=O)(=O)N2CCCC2)cc1  Kd (USP13 ZnF-UBD domain): > 1000 µM
COc1cc(C#CC(=O)c2ccccc2OC)ccc1O  binding (mvfR (Pseudomonas aeruginosa, UniProt Q9I4X0); receptor binding; concentration not given, 1.5 h, added: PQS at 1:1 ratio; reference: control): 84%
CN1C(=O)CCC(N2C(=O)c3cccc(N)c3C2=O)C1=O (stereo not shown)  Dmax (Sal-like protein 4 (SALL4, Homo sapiens, UniProt Q9UJQ4); degrader, immunofluorescence; C33): inactive
O=C(O)CC1Oc2ccccc2NC1=O (stereo not shown)  Kd (USP13 ZnF-UBD domain): 306 µM
CNC[C@H](O)c1cccc(O)c1  Emax (Alpha-1D adrenergic receptor, Δ1-79 (ADRA1D, Homo sapiens, UniProt P25100); calcium mobilisation, agonist; COS-7 transfected; reference: 3 µM ionomycin): ~25%
CC1CCCN(C(=O)c2cc3ncccn3n2)C1 (stereo not shown)  log fold enrichment (Huntingtin (HTT, Homo sapiens, UniProt P42858); binding, affinity selection mass spectrometry; reference: other proteins in batch): 0.0166

A few entries again:
O=C(COP(=O)(O)O)[C@@H](O)[C@H](O)[C@H](O)COP(=O)(O)O  thermal stability ratio (Myosin-10 (Homo sapiens, UniProt P35580); thermal proteome profiling, refers to: MYH10; HepG2 cell lysate; concentration not given, 57 over 37 °C, mean; reference: compound over control): 0.647
c1ccc2c(c1)-c1cccc3c1c-2cc1ccccc13  fold change (Aryl hydrocarbon receptor; reporter gene, agonist, luciferase reporter; ZF-4; 1111.11 µM; reference: vehicle control): 9.17
NCCCS(=O)(=O)O  normalised MST signal (Sodium- and chloride-dependent taurine transporter (SLC6A6, Homo sapiens, UniProt P31641, G62A); binding, microscale thermophoresis; 125 µM, room temperature, added: 50 nM labelled protein; higher = more binding): -0.0218
N[C@@H](CO)C(=O)O  number of binding sites (Lysozyme C (LYZ, Gallus gallus, UniProt P00698); intrinsic fluorescence; concentration not given, pH 6.9, 25 °C, lysozyme 10 µM): 0.85 ± 0.08
C=CC(=O)N1CCC(C(=O)NCC(=O)N2CCN(c3nc(-c4cnc(N)nc4C(F)F)nc(N4CCOCC4)n3)CC2)CC1  remaining binding (NUAK family SNF1-like kinase 2 (NUAK2, Homo sapiens, UniProt Q9H093); KINOMEscan; 1 µM): 100%
